Measurements collected from several papers.
Numbered parts are unrelated; each lists some results of a single study. Changes are numbered by the printed parent chain.

Block 1
Target: Sal-like protein 4, full length isoform A (SALL4, Homo sapiens, UniProt Q9UJQ4, residues 1-1053)
Sequence of UniProt Q9UJQ4 (whole entry, looked up): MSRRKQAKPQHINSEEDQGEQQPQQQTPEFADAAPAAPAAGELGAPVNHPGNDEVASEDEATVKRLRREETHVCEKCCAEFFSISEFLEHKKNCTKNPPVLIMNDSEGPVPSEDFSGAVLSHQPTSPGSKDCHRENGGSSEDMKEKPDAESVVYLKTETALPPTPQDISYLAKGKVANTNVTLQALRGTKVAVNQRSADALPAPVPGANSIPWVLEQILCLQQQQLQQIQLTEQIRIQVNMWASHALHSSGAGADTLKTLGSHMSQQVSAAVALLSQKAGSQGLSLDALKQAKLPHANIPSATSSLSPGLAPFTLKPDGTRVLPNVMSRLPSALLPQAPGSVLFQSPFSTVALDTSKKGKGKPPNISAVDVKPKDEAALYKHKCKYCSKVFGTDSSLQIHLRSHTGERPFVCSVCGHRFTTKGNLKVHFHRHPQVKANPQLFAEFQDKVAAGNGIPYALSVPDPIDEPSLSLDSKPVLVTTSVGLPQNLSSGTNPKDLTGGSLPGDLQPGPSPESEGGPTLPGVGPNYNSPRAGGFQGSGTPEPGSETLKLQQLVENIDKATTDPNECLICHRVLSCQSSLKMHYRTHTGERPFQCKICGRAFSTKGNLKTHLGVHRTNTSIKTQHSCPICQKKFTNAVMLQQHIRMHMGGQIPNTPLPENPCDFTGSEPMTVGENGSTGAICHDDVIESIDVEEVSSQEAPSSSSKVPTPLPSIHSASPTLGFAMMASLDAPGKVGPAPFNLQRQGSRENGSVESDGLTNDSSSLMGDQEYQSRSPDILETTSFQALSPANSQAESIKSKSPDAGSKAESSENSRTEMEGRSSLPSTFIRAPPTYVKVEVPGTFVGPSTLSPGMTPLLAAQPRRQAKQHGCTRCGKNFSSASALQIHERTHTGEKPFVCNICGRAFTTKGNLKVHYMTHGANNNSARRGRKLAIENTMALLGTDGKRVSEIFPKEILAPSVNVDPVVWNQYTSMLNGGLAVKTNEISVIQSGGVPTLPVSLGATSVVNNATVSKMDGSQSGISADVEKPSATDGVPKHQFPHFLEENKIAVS
Method: universal PBM
Form: double-stranded DNA, one strand shown
Matrix: in vitro
Tested at: 600 nM
Setting: 8-mer, flanks averaged, mean of replicates
Reading: higher = stronger binding
Oligonucleotide	E-score
ACTGGCGC	-0.194
GCTAACGA	-0.041
AGGGTGTC	-0.169
ACCCTTCG	-0.219

Block 2
Target: RNA binding protein fox-1 homolog 2, RRM domain, GST-SBP tag (RBFOX2, Homo sapiens, UniProt O43251-10, residues 100-194)
Method: RNA Bind-n-Seq
Form: RNA
Matrix: in vitro
Tested at: 365 nM
Setting: natural RNA segment, single round, ends assumed
Reference: no-protein control
Reading: higher = stronger binding
Target sequence (chain): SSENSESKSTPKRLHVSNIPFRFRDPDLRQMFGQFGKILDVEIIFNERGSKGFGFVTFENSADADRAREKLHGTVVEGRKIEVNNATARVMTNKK
Oligonucleotide	RBNS enrichment (R)
GGGAGUUCUACAGUCCGACGAUCGUCUACCUGCUGCUCCUACCAACCUGCACUGCAGCCUGGGUAGAGGGCGCUGCCACCACAAGGCCAGCCACUGAGCAGGCAGCUCCCUUCGUCGUCCUCCUGCCCACCCGUGGAAUUCUCGGGUGCCAA	0.337
GGGAGUUCUACAGUCCGACGAUCUUAAAUAAAGUCAUGAUCAGUGUGCAUUUGUGAUUAUAUGUGUACUCAUUCUCUUACCUAGCGAACAAGAUCUUUUCAGAGUGGUGUUUCUAAAAGAGCAUGUACAAAAGUGGAAUUCUCGGGUGCCAA	0.611
GGGAGUUCUACAGUCCGACGAUCGUAGGACACCCCAUACCCAGGCUUGGAGGAGUGCACGCCACACCAAGCCUCUGGGUAGAAUCUGAUGUGGCCUGAAGAAACCCUGAAGGUCACUGUCACUGUGGCGGGACUGGAAUUCUCGGGUGCCAA	0.308
GGGAGUUCUACAGUCCGACGAUCCUGCCCUGCUGUCCUCUGUAUCACACAAGACGUCUCGCUUGCUGUGUCGUGGUUUAGCUCCUCGGUGGUGAGGCGUGCUUCUCCCUCCUGGUGGAGCCAGGCAGCAGGGCUGGAAUUCUCGGGUGCCAA	0.857

Block 3
Target: CCNA1, cyclin fold, Cln2 fusion (human)
Method: yeast growth competition, sequencing
Matrix: yeast
Setting: weak parent motif
Reference: not given
Reading: higher = stronger binding
Starting sequence: CDC6 docking peptide (human); TLKGRRLVFDNQL; partner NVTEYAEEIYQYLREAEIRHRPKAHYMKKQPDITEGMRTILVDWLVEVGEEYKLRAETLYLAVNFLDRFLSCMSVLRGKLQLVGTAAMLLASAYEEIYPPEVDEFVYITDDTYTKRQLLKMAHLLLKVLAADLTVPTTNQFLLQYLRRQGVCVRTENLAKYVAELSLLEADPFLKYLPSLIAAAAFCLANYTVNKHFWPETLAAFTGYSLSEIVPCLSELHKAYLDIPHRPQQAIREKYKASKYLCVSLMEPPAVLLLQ
Substitution	normalised enrichment score
T1Y	0.184
R5N	0.0456
G4P	0.351

Further values, each from its own experiment
Molecule	target	assay	system	conditions	scale	quantity	value
PhoQ, residues 284 288 289 292 302 303 ASTSDA	PhoP, residues 12 14 15 18 19 FWNTL (Escherichia coli, UniProt P23836)	Sort-seq, measured: YFP reporter	E. coli	PhoQ-PhoP variant library, added: 10 µM Mg2+	reference: high Mg2+ state, higher = stronger signaling	fold induction	3.51

For quick reference, copied from above (block 1):
Oligonucleotide	E-score
AGGGTGTC	-0.169
ACCCTTCG	-0.219
